Results gathered from unrelated publications.
Each line is one published result; not all experiments were run side by side. Numbers after ± are the reported error. Values after ≈ are worked out from the molar mass of the structure shown.
Organism: Escherichia coli

The inhibition of `OC[C@H]1O[C@@H]2O[C@H]3[C@H](O)[C@@H](O)[C@@H](O[C@H]4[C@H](O)[C@@H](O)[C@@H](O[C@H]5[C@H](O)[C@@H](O)[C@@H](O[C@H]6[C@H](O)[C@@H](O)[C@@H](O[C@H]7[C@H](O)[C@@H](O)[C@@H](O[C@H]1[C@H](O)[C@H]2O)O[C@@H]7CO)O[C@@H]6CO)O[C@@H]5CO)O[C@@H]4CO)O[C@@H]3CO` is reported as 3 ± 7% (LuxR reporter, antagonist; DH5α sensor strain; 4 µM, together with: OHHL 200 nM).
`CC(C)C[C@H](NC(=O)[C@H](Cc1ccc(O)cc1)NC(=O)[C@@H]1CCCN1C(=O)[C@H](CCCNC(=N)N)NC(=O)[C@@H]1CCCN1C(=O)[C@H](CCCCN)NC(=O)[C@H](CC(=O)O)NC(=O)[C@@H]1CCCN1C(=O)[C@H](CCCNC(=N)N)NC(=O)C1(N)CCCCC1)C(=O)N1CCC[C@H]1C(=O)N[C@@H](CCCNC(=N)N)C(=O)N1CCC[C@H]1C(=O)N[C@@H](CCCNC(=N)N)C(=O)N1CCC[C@H]1C(=O)N1CCC[C@H]1C(=O)N[C@@H](CCCNC(=N)N)C(=O)N1CCC[C@H]1C(=O)N[C@H](C(=O)N[C@@H](CCCNC(=N)N)C(=O)N[C@@H](CSCc1ccccc1CSC[C@H](NC(=O)[C@H](CCCNC(=N)N)NC(=O)[C@@H](NC(=O)[C@@H]1CCCN1C(=O)[C@H](CCCNC(=N)N)NC(=O)[C@@H]1CCCN1C(=O)[C@@H]1CCCN1C(=O)[C@H](CCCNC(=N)N)NC(=O)[C@@H]1CCCN1C(=O)[C@H](CCCNC(=N)N)NC(=O)[C@@H]1CCCN1C(=O)[C@H](CC(C)C)NC(=O)[C@H](Cc1ccc(O)cc1)NC(=O)[C@@H]1CCCN1C(=O)[C@H](CCCNC(=N)N)NC(=O)[C@@H]1CCCN1C(=O)[C@H](CCCCN)NC(=O)[C@H](CC(=O)O)NC(=O)[C@@H]1CCCN1C(=O)[C@H](CCCNC(=N)N)NC(=O)C1(N)CCCCC1)C(C)C)C(=O)NN)C(=O)NN)C(C)C` has an MDC of 19.1 ± 0.2 µg/mL (membrane disruption, propidium iodide uptake; 25922; 90 min, 37 °C).
The MIC80 of `COc1ccccc1C(=O)Oc1cccccc1=O` is reported as 100 µM (≈ 25.6 µg/mL) (microbial growth, broth dilution; ATCC35218).
`CO[C@@H]1[C@@H](OC)[C@H]2O[C@H]3[C@H](OC)[C@@H](OC)[C@@H](O[C@H]4[C@H](OC)[C@@H](OC)[C@@H](O[C@H]5[C@H](OC)[C@@H](OC)[C@@H](O[C@H]6[C@H](OC)[C@@H](OC)[C@@H](O[C@H]7[C@H](OC)[C@@H](OC)[C@@H](O[C@@H]1[C@@H](Cn1cc(CCCC(=O)N[C@H]8CCOC8=O)nn1)O2)O[C@@H]7Cn1cc(CCCC(=O)N[C@H]2CCOC2=O)nn1)O[C@@H]6Cn1cc(CCCC(=O)N[C@H]2CCOC2=O)nn1)O[C@@H]5Cn1cc(CCCC(=O)N[C@H]2CCOC2=O)nn1)O[C@@H]4Cn1cc(CCCC(=O)N[C@H]2CCOC2=O)nn1)O[C@@H]3Cn1cc(CCCC(=O)N[C@H]2CCOC2=O)nn1` has an inhibition of 35 ± 1% (LuxR reporter, antagonist; DH5α sensor strain; 200 µM, together with: OHHL 200 nM).
For `N=C(N)NCCC[C@@H]1NC(=O)[C@H](CCCNC(=N)N)NC(=O)[C@@H](C(c2ccccc2)c2ccccc2)NC(=O)[C@H](Cc2c[nH]c3ccccc23)NC(=O)[C@@H](C(c2ccccc2)c2ccccc2)NC(=O)[C@@H](CCCNC(=N)N)NC(=O)[C@@H](CCCNC(=N)N)NC1=O`, “time to complete killing” read 3 to 4 h (ATCC BAA-2452; MIC).
`CC(CCCOC(=O)CCC[N+](C)(C)C)C1CCC2C3CCC4CC(OC(=O)CCC[N+](C)(C)C)CCC4(C)C3CCC12C` (stereo not shown) has an inhibition zone of 11 mm (microbial growth, disc diffusion; ATCC25922; 15.6 µg/disc, 24 h).
The MBC of `CCCCCCCCCC(=O)Oc1c(C)c(OC)c2c(/C=C/c3ccccc3)c(CCCCCCCC)c(=O)oc2c1C` is reported as greater than 5000 µg/mL (microbial killing, broth dilution; ATCC25922).
`O=C(CCCc1cn(C[C@H]2O[C@@H]3O[C@H]4[C@H](O)[C@@H](O)[C@@H](O[C@H]5[C@H](O)[C@@H](O)[C@@H](O[C@H]6[C@H](O)[C@@H](O)[C@@H](O[C@H]7[C@H](O)[C@@H](O)[C@@H](O[C@H]8[C@H](O)[C@@H](O)[C@@H](O[C@H]9[C@H](O)[C@@H](O)[C@@H](O[C@H]2[C@H](O)[C@H]3O)O[C@@H]9CO)O[C@@H]8CO)O[C@@H]7CO)O[C@@H]6CO)O[C@@H]5CO)O[C@@H]4CO)nn1)N[C@H]1CCOC1=O` gave an inhibition of -3 ± 8% (LuxR reporter, antagonist; DH5α sensor strain; 10 µM, together with: OHHL 200 nM).
With `CC(C)C1=CC2=CCC3C(C)(C(=O)OCCC[N+](C)(C)C)CCCC3(C)C2CC1` (stereo not shown) the inhibition zone was 10 mm (microbial growth, disc diffusion; ATCC25922; 125 µg/disc, 24 h).
Under “MIC fold change”, `CC[C@H](C)[C@H](NC(=O)[C@H](CCCN)NC(=O)[C@H](CC(N)=O)NC(=O)[C@H](Cc1c[nH]c2ccccc12)NC(=O)[C@H](Cc1ccccc1)NC(=O)[C@H](CCCN)NC(=O)[C@H](CCCCNC(=N)N)NC(=O)[C@H](CC(C)C)NC(=O)[C@H](Cc1c[nH]c2ccccc12)NC(=O)[C@H](CCCN)NC(=O)[C@H](CCCCNC(=N)N)NC(=O)[C@H](CC(C)C)NC(=O)CNC(C)=O)C(=O)N[C@@H](CCCN)C(=O)N[C@@H](CCCCNC(=N)N)C(N)=O` is recorded as 1 fold (ATCC 25922; concentration not given, together with: FeCl3 4 µM; baseline: without salt).
For `CC[C@H](C)[C@H](NC(=O)[C@H](CC1CCCCC1)NC(=O)[C@H](Cc1ccccc1)NC(=O)[C@@H](N)CCCN)C(=O)N[C@H](Cc1ccccc1)C(=O)N[C@@H](Cc1cn(Cc2ccccc2)cn1)C(N)=O`, the IC50 was greater than 20 µg/mL (bacterial growth; ATCC 35218).
`O=C(CCCc1cn(C[C@H]2O[C@@H]3O[C@H]4[C@H](O)[C@@H](O)[C@@H](O[C@H]5[C@H](O)[C@@H](O)[C@@H](O[C@H]6[C@H](O)[C@@H](O)[C@@H](O[C@H]7[C@H](O)[C@@H](O)[C@@H](O[C@H]8[C@H](O)[C@@H](O)[C@@H](O[C@H]9[C@H](O)[C@@H](O)[C@@H](O[C@H]2[C@H](O)[C@H]3O)O[C@@H]9Cn2cc(CCCC(=O)N[C@H]3CCOC3=O)nn2)O[C@@H]8Cn2cc(CCCC(=O)N[C@H]3CCOC3=O)nn2)O[C@@H]7Cn2cc(CCCC(=O)N[C@H]3CCOC3=O)nn2)O[C@@H]6Cn2cc(CCCC(=O)N[C@H]3CCOC3=O)nn2)O[C@@H]5Cn2cc(CCCC(=O)N[C@H]3CCOC3=O)nn2)O[C@@H]4Cn2cc(CCCC(=O)N[C@H]3CCOC3=O)nn2)nn1)N[C@H]1CCOC1=O` has an inhibition of 53 ± 3% (LuxR reporter, antagonist; DH5α sensor strain; 40 µM, together with: OHHL 200 nM).
The MBC of `COc1c(C)c(OS(=O)(=O)c2ccccc2)c(C)c(O)c1C(=O)/C=C/c1ccccc1` is reported as greater than 5000 µg/mL (microbial killing, broth dilution; ATCC25922).
`COc1cc(Cc2cnc(N)nc2N)cc(OC)c1OC.O=c1[nH]cc(F)c(=O)[nH]1` gave an MBC of greater than 32 µg/mL (broth microdilution; 48 h).
The MBC of `CO[C@H]1O[C@H](COC(c2ccccc2)(c2ccccc2)c2ccccc2)[C@@H](OS(=O)(=O)c2ccccc2)[C@H](OS(=O)(=O)c2ccccc2)[C@H]1OS(=O)(=O)c1ccccc1` is reported as 16 µg/mL (microbial killing, broth dilution).
For `CCCCCCCC(=O)Oc1c(C)c(OC)c2c(c1C)OC(=O)[C@@H](CCCCCC)[C@]2(O)/C=C/c1ccccc1` (racemic), the MBC was greater than 5000 µg/mL (microbial killing, broth dilution; ATCC25922).
The MIC80 of `Cc1cccc(C(=O)Sc2cccccc2=O)c1` is reported as 100 µM (≈ 25.6 µg/mL) (microbial growth, broth dilution; ATCC35218).
For `CO[C@@H]1[C@@H](OC)[C@H]2O[C@H]3[C@H](OC)[C@@H](OC)[C@@H](O[C@H]4[C@H](OC)[C@@H](OC)[C@@H](O[C@H]5[C@H](OC)[C@@H](OC)[C@@H](O[C@H]6[C@H](OC)[C@@H](OC)[C@@H](O[C@H]7[C@H](OC)[C@@H](OC)[C@@H](O[C@H]8[C@H](OC)[C@@H](OC)[C@@H](O[C@@H]1[C@@H](Cn1cc(CCCC(=O)N[C@H]9CCOC9=O)nn1)O2)O[C@@H]8Cn1cc(CCCC(=O)N[C@H]2CCOC2=O)nn1)O[C@@H]7Cn1cc(CCCC(=O)N[C@H]2CCOC2=O)nn1)O[C@@H]6Cn1cc(CCCC(=O)N[C@H]2CCOC2=O)nn1)O[C@@H]5Cn1cc(CCCC(=O)N[C@H]2CCOC2=O)nn1)O[C@@H]4Cn1cc(CCCC(=O)N[C@H]2CCOC2=O)nn1)O[C@@H]3Cn1cc(CCCC(=O)N[C@H]2CCOC2=O)nn1`, the inhibition was 17 ± 1% (LuxR reporter, antagonist; DH5α sensor strain; 20 µM, together with: OHHL 200 nM).
`COc1cc2c(cc1OC)-c1cc3ccc(OC)c(OC)c3c[n+]1CC2.[Cl][Fe-]([Cl])([Cl])[Cl]` has an MBC of greater than 800 µM (24 h, 37 °C).
With `O=C(CCCc1cn(C[C@H]2O[C@@H]3O[C@H]4[C@H](O)[C@@H](O)[C@@H](O[C@H]5[C@H](O)[C@@H](O)[C@@H](O[C@H]6[C@H](O)[C@@H](O)[C@@H](O[C@H]7[C@H](O)[C@@H](O)[C@@H](O[C@H]8[C@H](O)[C@@H](O)[C@@H](O[C@H]2[C@H](O)[C@H]3O)O[C@@H]8Cn2cc(CCCC(=O)N[C@H]3CCOC3=O)nn2)O[C@@H]7Cn2cc(CCCC(=O)N[C@H]3CCOC3=O)nn2)O[C@@H]6Cn2cc(CCCC(=O)N[C@H]3CCOC3=O)nn2)O[C@@H]5Cn2cc(CCCC(=O)N[C@H]3CCOC3=O)nn2)O[C@@H]4Cn2cc(CCCC(=O)N[C@H]3CCOC3=O)nn2)nn1)N[C@H]1CCOC1=O` the inhibition was 8 ± 4% (LuxR reporter, antagonist; DH5α sensor strain; 40 µM, together with: OHHL 200 nM).
`CC(CCCOC(=O)CCC[N+](C)(C)C)C1CCC2C3CCC4CC(OC(=O)CCC[N+](C)(C)C)CCC4(C)C3CC(OC(=O)CCC[N+](C)(C)C)C12C` (stereo not shown) has an inhibition zone of 8 mm (microbial growth, disc diffusion; ATCC25922; 31.2 µg/disc, 24 h).
`[Cl-].[Cl][Ru-4]123([n+]4ccccc4-c4cc(-c5ccccc5)cc([n+]41)-c1cccc[n+]12)[n+]1ccc(-c2ccccc2)c2ccc4c(-c5ccccc5)cc[n+]3c4c21` gave a cellular uptake of 11% (ICP-MS; 20 µM, 24 h).

For quick reference, copied from above:
`O=C(CCCc1cn(C[C@H]2O[C@@H]3O[C@H]4[C@H](O)[C@@H](O)[C@@H](O[C@H]5[C@H](O)[C@@H](O)[C@@H](O[C@H]6[C@H](O)[C@@H](O)[C@@H](O[C@H]7[C@H](O)[C@@H](O)[C@@H](O[C@H]8[C@H](O)[C@@H](O)[C@@H](O[C@H]9[C@H](O)[C@@H](O)[C@@H](O[C@H]2[C@H](O)[C@H]3O)O[C@@H]9CO)O[C@@H]8CO)O[C@@H]7CO)O[C@@H]6CO)O[C@@H]5CO)O[C@@H]4CO)nn1)N[C@H]1CCOC1=O` gave an inhibition of -3 ± 8% (LuxR reporter, antagonist; DH5α sensor strain; 10 µM, together with: OHHL 200 nM).
